Measured values from different studies.
Compare with care: the assays were run in different laboratories. Numbers after ± are the reported error.
AURKA: Aurora kinase A (AURKA, Homo sapiens, UniProt O14965)
UniProt O14965, sequence (whole entry, looked up): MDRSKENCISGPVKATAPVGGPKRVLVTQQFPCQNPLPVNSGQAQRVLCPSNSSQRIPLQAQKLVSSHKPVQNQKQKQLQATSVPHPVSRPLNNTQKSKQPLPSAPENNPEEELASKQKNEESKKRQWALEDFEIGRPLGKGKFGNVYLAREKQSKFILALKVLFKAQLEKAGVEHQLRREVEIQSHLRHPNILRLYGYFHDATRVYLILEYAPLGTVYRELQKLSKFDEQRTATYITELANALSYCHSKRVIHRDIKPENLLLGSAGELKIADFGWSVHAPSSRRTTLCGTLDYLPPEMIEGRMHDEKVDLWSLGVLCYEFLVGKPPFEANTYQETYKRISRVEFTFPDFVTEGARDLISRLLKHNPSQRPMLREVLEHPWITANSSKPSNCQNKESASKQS

Structure (SMILES) = COCCNc1nc2ccc(C#CC3(O)CCCCC3)cc2n1-c1ccnc(N)n1; target = AURKA; assay = enzyme activity, inhibitor, Z'-LYTE; setting = 1 µM; how to read = baseline: no-inhibitor control; quantity = remaining kinase activity; value = 10.2%
Structure (SMILES) = C=CC(=O)N1CCC([C@@H]2CCNc3c(C(N)=O)c(-c4ccc(Oc5ccccc5)cc4)nn32)CC1; target = AURKA; assay = kinase activity, inhibitor, HotSpot radiometric; setting = 100 nM, added: ATP 10 µM; quantity = remaining activity; value = 92.7 ± 0.3%
Structure (SMILES) = C=CC(=O)N1CCC(COCC(=O)N2CCN(c3nc(-c4cnc(N)nc4C(F)F)nc(N4CCOC[C@@H]4C)n3)CC2)CC1; target = AURKA; assay = KINOMEscan; setting = 1 µM; quantity = remaining binding; value = 95%
Structure (SMILES) = COc1ccc(F)cc1C(=O)NCc1ccc(-c2nn([C@@H](C)C(F)(F)F)c(N)c2C(N)=O)cc1; target = AURKA; assay = kinase activity, inhibitor, HotSpot radiometric; setting = 100 nM, added: ATP 10 µM; quantity = remaining activity; value = 80.4 ± 1.2%
Structure (SMILES) = CC(=O)ON=C1C=CC(=C(C#N)c2ccccc2)C=C1; target = AURKA; assay = kinase activity, ADP-Glo; setting = 20 µM; quantity = inhibition; value = 34%
Structure (SMILES) = CC/C(=N\NC(=O)NCc1cccc(O)c1)c1ccc(O)c(C)c1O; target = Aurora kinase A, with TPX2 (AURKA, Homo sapiens, UniProt O14965); assay = kinase activity; setting = 0.1 µM; quantity = inhibition; value = 4.2%
Structure (SMILES) = CC[C@@H]1[C@H](F)C(=O)N[C@@H]1COc1nccc2cc(C(N)=O)c(OC)cc12; target = AURKA; assay = ATP probe binding, KiNativ profiling, refers to: Lys1 probe site; system = THP-1 cell lysate; setting = 0.04 mM; quantity = inhibition; value = -2.4%
Structure (SMILES) = O=C1NC(=O)/C(=C/c2ccc(-c3ccc(F)cc3O)o2)S1; target = AURKA; assay = enzyme activity; setting = 10 µM; quantity = remaining activity; value = 95%
Structure (SMILES) = CN(C)C(=O)c1cc2cnc(Nc3ccc(-c4ccc5c(=O)cc(N6CCOCC6)oc5c4)cc3)nc2n1C1CCCC1; target = AURKA; assay = KINOMEscan binding; setting = 1.0 µM; how to read = baseline: control; quantity = remaining binding; value = 0%
Structure (SMILES) = COc1cc(F)ccc1-c1ncnc(Nc2cccc(C[S@](C)(=N)=O)c2)n1; target = AURKA; assay = kinase activity; setting = 10 µM, added: 10 µM ATP; quantity = remaining activity; value = 48%
Structure (SMILES) = C=CC(=O)N1CCC[C@@H](n2nc(-c3ccc(Oc4ccccc4)cc3)c3c(N)ncnc32)C1; target = AURKA; assay = kinase activity, inhibitor, HotSpot radiometric; setting = 100 nM, added: ATP 10 µM; quantity = remaining activity; value = 81.4 ± 2.5%
Structure (SMILES) = [2H]c1cc(C)c(NC(=O)c2cnc(Nc3cc(N4CCCCC4)nc(C)n3)s2)c(Cl)c1; target = AURKA; setting = 0.01 µM; quantity = inhibition; value = < 30%

Repeated from above:
Structure (SMILES) = CN(C)C(=O)c1cc2cnc(Nc3ccc(-c4ccc5c(=O)cc(N6CCOCC6)oc5c4)cc3)nc2n1C1CCCC1; target = AURKA; assay = KINOMEscan binding; setting = 1.0 µM; how to read = baseline: control; quantity = remaining binding; value = 0%
